Experimental data from different studies.
Protocols differ between the studies behind these lines. Numbers after ± are the reported error.
Cell line: HepG2

COC1=CC(=O)c2cc3c(cc2C1=O)CCCC3(C)C — CC50 (cytotoxicity, Alamar Blue; 72 h): 29.7 ± 1.3 µM
C=CCOC(=O)C1C(C=O)=Cc2cc3c(cc2C1c1cc(OC)c(OC)c(OC)c1)OCO3 (stereo not shown) — CC50 (cell growth or viability, resazurin; 48 h): > 100 µM
COC(=O)c1[nH]c(C(=O)OC)c2c1-c1c[nH]c3cccc(c13)C21CN(C)c2ccccc21 (racemic) — CC50 (cell growth or viability, ATP luminescence; 72 h): > 10 µM
CC(C)CCCc1ccc2c(c1)C(=O)C(Br)=C(Br)C2=O — CC50 (cytotoxicity, Alamar Blue; 72 h): 14.7 ± 0.8 µM
NC[C@H]1O[C@H](O[C@H]2[C@H](OCCCCCCCCCCCCn3cc(CNc4nc(NCc5cn(CCCCCCCCCCCCO[C@@H]6[C@@H](O)[C@H](N)C[C@H](N)[C@H]6O[C@H]6O[C@H](CN)[C@@H](O)C[C@H]6N)nn5)nc(NCc5cn(CCCCCCCCCCCCO[C@@H]6[C@@H](O)[C@H](N)C[C@H](N)[C@H]6O[C@H]6O[C@H](CN)[C@@H](O)C[C@H]6N)nn5)n4)nn3)[C@@H](O)[C@H](N)C[C@@H]2N)[C@H](N)C[C@@H]1O — CC50 (cell growth or viability, resazurin; 48 h): 44.8 µM
CCNC1=C(Cl)C(=O)c2cc3c(cc2C1=O)CCCC3(C)C — CC50 (cytotoxicity, Alamar Blue; 72 h): > 200 µM
COc1ccc(-c2oc3ccc(-c4cc(OC)c(OC)c(OC)c4)cc3c2C#CC(C)(C)O)cc1 — CC50: > 31.6 µM
COC(=O)C1C(c2nc3cc(OC)ccc3[nH]2)=Cc2cc3c(cc2C1c1cc(OC)c(OC)c(OC)c1)OCO3 (stereo not shown) — CC50 (cell growth or viability, resazurin; 48 h): 51.2 µM
CN(C(=O)c1ccn2ncc(-c3ccc(C(N)=O)cc3)c2c1)c1ccc(C#N)cn1 — CC50 (96 h): 15.6 ± 8.62 µM
NC(=O)C(CC(=O)c1cccc(Oc2ccccc2)c1)c1ccc(Cl)cc1 (stereo not shown) — CC50: > 300 µg/mL
COc1ccc(-c2oc3ccc(-c4cc(OC)c(OC)c(OC)c4)cc3c2C#CC2(O)CCCCC2)cc1 — CC50: > 31.6 µM
OC[C@H]1O[C@@H](n2cnc3c(O)ncnc32)[C@H](F)[C@@H]1O — CC50 (sulforhodamine B; 11 days, galactose medium): > 250 µM
CCNC1=CC(=O)c2cc3c(cc2C1=O)CCCC3(C)C — CC50 (cytotoxicity, Alamar Blue; 72 h): 149 ± 9 µM
COc1ccc(NC(=O)N2CCCN3CCC(c4ccc(C#CC5CCCCC5)cc4)C3C2)cc1 (stereo not shown) — CC50 (cell growth or viability, ATP luminescence; 72 h): 7.4 µM
COC(=O)C1C(C=NNCC(F)(F)F)=Cc2cc3c(cc2C1c1cc(OC)c(OC)c(OC)c1)OCO3 (stereo not shown) — CC50 (cell growth or viability, resazurin; 48 h): > 100 µM
NC(=O)C(CC(=O)c1cccc(Oc2ccccc2)c1)c1ccc(F)cc1 (stereo not shown) — CC50: > 300 µg/mL
CN(C(=O)c1ccn2ncc(-c3ccc(C(N)=O)cc3)c2c1)C1CCC(C#N)CC1 (stereo not shown) — CC50 (96 h): > 50 µM
CC(C)=CCCC1=CCC2C(=O)c3ccccc3C(=O)C2C1 (stereo not shown) — CC50 (cytotoxicity, Alamar Blue; 72 h): 82.9 ± 5.3 µM
Cc1c(-c2ccc(Cc3ccc(OC(F)(F)F)cc3)cc2)[nH]c2cccc(F)c2c1=O — CC50 (cell growth or viability, CCK-8; 24 h): > 10 µM
CNC(=O)c1ccc(-c2cnn3ccc(C(=O)Nc4ccc(C#N)cn4)cc23)cc1 — CC50 (96 h): > 50 µM
Nc1ccn([C@@H]2O[C@H](CO)[C@@H](O)[C@H]2F)c(=O)n1 — CC50 (sulforhodamine B; 11 days, galactose medium): > 250 µM
COC(=O)c1[nH]c(C(=O)OC)c2c1-c1c[nH]c3ccc(Cl)c(c13)C21C=Nc2ccc(Cl)cc21 (racemic) — CC50 (cell growth or viability, ATP luminescence; 72 h): 10 µM
CN(C(=O)c1ccn2ncc(-c3ccc(C(F)(F)F)cc3)c2c1)c1ccc(C#N)cn1 — CC50 (96 h): > 50 µM
COc1ccc(NC(=O)N2CCCN3CCC(c4ccc(C#Cc5ccccc5)cc4)C3C2)cc1 (stereo not shown) — CC50 (cell growth or viability, ATP luminescence; 72 h): 8.48 µM
O=c1ccn([C@@H]2O[C@H](CO)[C@@H](O)[C@H]2F)c(=O)[nH]1 — CC50 (sulforhodamine B; 11 days, galactose medium): > 250 µM
CCOC(=O)c1cn(-c2nc(C(F)(F)F)n[nH]2)nn1 — CC50 (cell growth or viability, MTT; 72 h): ≥ 500 µM
Cc1ccc(NC(=O)N2CCCN3CCC(c4ccc(C#CC5CCCC5O)cc4)C3C2)cc1 (stereo not shown) — CC50 (cell growth or viability, ATP luminescence; 72 h): 1.91 µM
O=C1Nc2ccc(Cl)cc2C1=Cc1ccc(-c2cccc(C(=O)NCC3CCNCC3)c2)o1 (mixture of isomers) — CC50 (cell viability, MTT; 24 h): 24.5 µM
CC(=O)Oc1ccc(OC(C)=O)c2c1CC1=C(C2)C(C)(C)CCC1 — CC50 (cytotoxicity, Alamar Blue; 72 h): 37 ± 2.1 µM
COC(=O)C1C(C=NN=CC2=Cc3cc4c(cc3C(c3cc(OC)c(OC)c(OC)c3)C2C(=O)OC)OCO4)=Cc2cc3c(cc2C1c1cc(OC)c(OC)c(OC)c1)OCO3 (stereo not shown) — CC50 (cell growth or viability, resazurin; 48 h): > 100 µM
Nc1ncnc2c1ncn2[C@@H]1O[C@H](CO)[C@@H](O)[C@H]1F — CC50 (sulforhodamine B; 11 days, galactose medium): 108 µM

For quick reference, copied from above:
NC(=O)C(CC(=O)c1cccc(Oc2ccccc2)c1)c1ccc(F)cc1 (stereo not shown) — CC50: > 300 µg/mL
CN(C(=O)c1ccn2ncc(-c3ccc(C(N)=O)cc3)c2c1)C1CCC(C#N)CC1 (stereo not shown) — CC50 (96 h): > 50 µM
